Results gathered from unrelated publications.
A part holds a random share of what one study measured. “And” joins repeats or separate records; there may be more than shown.
Chain of UniProt P10721 (whole entry, unmodified, looked up): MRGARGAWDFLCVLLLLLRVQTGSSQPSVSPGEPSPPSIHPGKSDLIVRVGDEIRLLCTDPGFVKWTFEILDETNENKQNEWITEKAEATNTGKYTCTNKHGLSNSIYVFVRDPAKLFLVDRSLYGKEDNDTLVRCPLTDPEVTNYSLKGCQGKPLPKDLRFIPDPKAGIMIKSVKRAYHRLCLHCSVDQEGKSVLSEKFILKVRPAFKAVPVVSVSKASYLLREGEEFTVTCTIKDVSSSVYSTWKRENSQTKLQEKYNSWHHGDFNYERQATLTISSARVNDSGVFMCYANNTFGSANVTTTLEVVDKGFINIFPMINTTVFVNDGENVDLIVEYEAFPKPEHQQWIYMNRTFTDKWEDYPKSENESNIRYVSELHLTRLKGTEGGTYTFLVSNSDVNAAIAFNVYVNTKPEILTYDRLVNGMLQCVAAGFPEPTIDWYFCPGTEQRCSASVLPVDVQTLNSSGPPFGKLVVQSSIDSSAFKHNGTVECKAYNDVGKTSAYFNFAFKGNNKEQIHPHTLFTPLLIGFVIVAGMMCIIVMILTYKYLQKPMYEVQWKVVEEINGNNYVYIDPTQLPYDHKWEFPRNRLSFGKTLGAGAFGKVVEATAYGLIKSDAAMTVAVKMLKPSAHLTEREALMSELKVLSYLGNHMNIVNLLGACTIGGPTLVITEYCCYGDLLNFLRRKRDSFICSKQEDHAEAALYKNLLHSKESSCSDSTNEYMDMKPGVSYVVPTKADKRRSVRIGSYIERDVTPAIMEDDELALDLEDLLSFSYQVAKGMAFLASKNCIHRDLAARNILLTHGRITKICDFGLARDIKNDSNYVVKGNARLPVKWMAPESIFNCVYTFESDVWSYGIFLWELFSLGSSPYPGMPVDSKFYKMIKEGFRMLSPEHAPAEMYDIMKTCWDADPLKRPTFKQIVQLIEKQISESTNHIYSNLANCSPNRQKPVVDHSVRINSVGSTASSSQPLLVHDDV
Chain of UniProt O75676 (whole entry, looked up): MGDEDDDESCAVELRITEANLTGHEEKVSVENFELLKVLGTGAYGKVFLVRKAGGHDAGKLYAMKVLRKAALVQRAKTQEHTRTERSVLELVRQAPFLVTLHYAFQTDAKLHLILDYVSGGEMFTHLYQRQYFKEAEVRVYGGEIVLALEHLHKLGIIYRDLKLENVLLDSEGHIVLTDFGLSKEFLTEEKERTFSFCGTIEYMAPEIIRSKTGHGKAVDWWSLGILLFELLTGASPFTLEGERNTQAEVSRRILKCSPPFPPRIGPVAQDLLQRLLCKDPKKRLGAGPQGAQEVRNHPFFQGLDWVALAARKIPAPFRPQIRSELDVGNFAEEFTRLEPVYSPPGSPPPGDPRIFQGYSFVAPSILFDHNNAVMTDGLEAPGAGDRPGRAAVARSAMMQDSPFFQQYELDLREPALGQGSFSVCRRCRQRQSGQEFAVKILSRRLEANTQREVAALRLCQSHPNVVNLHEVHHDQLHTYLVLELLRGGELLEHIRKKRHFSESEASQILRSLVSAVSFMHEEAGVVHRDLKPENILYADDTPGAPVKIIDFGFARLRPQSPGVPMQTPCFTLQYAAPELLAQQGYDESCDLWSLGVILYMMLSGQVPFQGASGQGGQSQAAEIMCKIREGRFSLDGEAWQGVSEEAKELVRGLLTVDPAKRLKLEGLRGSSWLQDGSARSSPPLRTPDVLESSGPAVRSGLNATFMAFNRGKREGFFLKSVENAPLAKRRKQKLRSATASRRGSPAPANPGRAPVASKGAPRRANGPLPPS
Chain of UniProt Q9H3Y6 (whole entry, looked up): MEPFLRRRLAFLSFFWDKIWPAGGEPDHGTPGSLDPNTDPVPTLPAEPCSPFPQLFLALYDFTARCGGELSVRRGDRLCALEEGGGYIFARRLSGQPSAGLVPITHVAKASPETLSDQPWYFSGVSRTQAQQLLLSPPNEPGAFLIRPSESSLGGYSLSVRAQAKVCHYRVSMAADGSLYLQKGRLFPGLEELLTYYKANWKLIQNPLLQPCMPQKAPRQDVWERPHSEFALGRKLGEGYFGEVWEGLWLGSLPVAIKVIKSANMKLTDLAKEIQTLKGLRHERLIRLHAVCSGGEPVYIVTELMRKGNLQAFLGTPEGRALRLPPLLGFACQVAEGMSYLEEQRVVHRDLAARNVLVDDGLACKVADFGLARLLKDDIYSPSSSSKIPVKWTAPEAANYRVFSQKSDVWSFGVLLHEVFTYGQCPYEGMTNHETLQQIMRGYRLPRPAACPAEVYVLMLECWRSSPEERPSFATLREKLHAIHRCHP
Chain of UniProt Q8TDC3 (whole entry, looked up): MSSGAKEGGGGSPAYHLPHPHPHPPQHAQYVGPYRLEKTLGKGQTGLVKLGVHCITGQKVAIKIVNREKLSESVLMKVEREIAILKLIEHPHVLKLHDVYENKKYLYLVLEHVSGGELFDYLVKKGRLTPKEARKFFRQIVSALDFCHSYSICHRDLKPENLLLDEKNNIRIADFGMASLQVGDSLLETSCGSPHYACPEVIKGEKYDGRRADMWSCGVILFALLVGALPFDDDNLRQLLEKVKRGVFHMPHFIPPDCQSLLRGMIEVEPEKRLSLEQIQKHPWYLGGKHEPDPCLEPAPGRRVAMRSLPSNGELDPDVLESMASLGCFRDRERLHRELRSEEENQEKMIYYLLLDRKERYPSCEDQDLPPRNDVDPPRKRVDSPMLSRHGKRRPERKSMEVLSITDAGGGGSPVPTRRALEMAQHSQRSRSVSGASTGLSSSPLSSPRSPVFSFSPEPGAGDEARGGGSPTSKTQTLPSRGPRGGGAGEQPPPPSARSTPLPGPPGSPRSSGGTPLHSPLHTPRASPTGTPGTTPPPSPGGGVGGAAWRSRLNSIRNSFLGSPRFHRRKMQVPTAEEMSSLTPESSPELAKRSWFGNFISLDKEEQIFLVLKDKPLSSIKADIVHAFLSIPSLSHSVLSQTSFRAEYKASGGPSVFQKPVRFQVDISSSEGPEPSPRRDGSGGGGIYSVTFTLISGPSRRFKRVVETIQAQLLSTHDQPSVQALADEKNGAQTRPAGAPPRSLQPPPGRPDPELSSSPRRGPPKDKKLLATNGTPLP
Chain of UniProt P22455 (whole entry, looked up): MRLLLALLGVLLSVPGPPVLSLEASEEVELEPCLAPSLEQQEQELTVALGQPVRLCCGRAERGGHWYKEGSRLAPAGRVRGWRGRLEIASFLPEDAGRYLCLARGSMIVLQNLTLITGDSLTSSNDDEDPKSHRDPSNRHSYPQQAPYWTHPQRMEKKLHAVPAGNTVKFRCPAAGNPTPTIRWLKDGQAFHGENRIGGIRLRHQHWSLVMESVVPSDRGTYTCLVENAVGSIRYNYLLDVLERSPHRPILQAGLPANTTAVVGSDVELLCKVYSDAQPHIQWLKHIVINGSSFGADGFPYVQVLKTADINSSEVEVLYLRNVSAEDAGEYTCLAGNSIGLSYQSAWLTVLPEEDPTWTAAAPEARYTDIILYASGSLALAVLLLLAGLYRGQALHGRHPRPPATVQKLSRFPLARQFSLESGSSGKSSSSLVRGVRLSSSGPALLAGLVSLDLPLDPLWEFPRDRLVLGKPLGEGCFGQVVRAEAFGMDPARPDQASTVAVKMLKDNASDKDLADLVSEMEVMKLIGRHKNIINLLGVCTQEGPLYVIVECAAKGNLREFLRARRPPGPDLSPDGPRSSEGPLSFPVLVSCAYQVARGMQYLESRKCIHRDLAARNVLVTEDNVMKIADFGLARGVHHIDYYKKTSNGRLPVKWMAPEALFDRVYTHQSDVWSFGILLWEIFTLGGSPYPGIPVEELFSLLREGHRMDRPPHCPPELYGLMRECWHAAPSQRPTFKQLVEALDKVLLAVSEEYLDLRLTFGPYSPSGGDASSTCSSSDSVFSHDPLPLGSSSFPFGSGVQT
Chain of UniProt Q13043 (whole entry, looked up): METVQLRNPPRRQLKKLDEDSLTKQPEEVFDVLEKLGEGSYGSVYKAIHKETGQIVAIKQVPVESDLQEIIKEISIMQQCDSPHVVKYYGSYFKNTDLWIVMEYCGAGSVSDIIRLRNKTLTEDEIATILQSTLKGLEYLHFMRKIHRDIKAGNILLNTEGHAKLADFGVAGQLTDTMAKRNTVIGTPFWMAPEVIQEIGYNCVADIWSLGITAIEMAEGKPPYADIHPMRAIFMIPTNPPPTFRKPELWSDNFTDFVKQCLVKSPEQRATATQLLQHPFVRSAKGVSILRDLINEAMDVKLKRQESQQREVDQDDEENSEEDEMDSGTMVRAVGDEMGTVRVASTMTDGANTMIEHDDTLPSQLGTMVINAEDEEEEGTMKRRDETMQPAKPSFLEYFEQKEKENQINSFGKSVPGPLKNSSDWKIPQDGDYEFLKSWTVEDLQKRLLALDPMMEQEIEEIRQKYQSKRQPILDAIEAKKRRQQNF

Block 1
Organism: Plasmodium berghei
Mode: inhibitor
Cell line: Huh-7
Strain: GFP-expressing, liver stage
Tested at: 10 µM
Time: 24 h
Relative to: untreated control
For `Nc1ccc(S(=O)(=O)Nc2ccc(Cl)nn2)cc1`, the infection rate was 87.1%.
With `O=C(Nc1ccccc1)c1ccccc1O` the infection rate was 35.4%.
The infection rate of `CCOc1ccc(NC(C)=O)cc1` is reported as 103%.
With `COc1ccc(CN(CCN(C)C)c2ncccn2)cc1` the infection rate was 102%.
The infection rate of `N[C@@H](CC(=O)N1CCn2c(nnc2C(F)(F)F)C1)Cc1cc(F)c(F)cc1F` is reported as 79.1%.
`Oc1cccc(O)c1` has an infection rate of 108%.
The infection rate of `CN(CCOc1ccc(CC2SC(=O)NC2=O)cc1)c1ccccn1` (stereo not shown) is reported as 74.4%.
For `NC(=O)c1ccccc1O`, the infection rate was 99.3%.
`O=C1CN(/N=C/c2ccc([N+](=O)[O-])o2)C(=O)N1` has an infection rate of 66.6%.
With `CNC(=C[N+](=O)[O-])NCCSCc1csc(CN(C)C)n1` the infection rate was 90.8%.
`CCn1cc(C(=O)O)c(=O)c2cc(F)c(N3CCNCC3)cc21` gave an infection rate of 115%.
For `NC[C@H]1O[C@H](O[C@H]2[C@H](O)[C@@H](O[C@H]3O[C@H](CO)[C@@H](O)[C@H](N)[C@H]3O)[C@H](N)C[C@@H]2N)[C@H](N)C[C@@H]1O`, the infection rate was 91.5%.
`CCCCOc1ccc(OCCCN2CCOCC2)cc1` gave an infection rate of 87.7%.
`Cc1ccc(S(=O)(=O)NC(=O)NN2CCCCCC2)cc1` gave an infection rate of 75.7%.
`COC(=O)[C@@H]1[C@H]2C[C@H]3c4[nH]c5ccccc5c4CCN3C[C@@H]2CC[C@@H]1O` gave an infection rate of 87.8%.
`CC1(C)S[C@@H]2[C@H](NC(=O)Cc3ccccc3)C(=O)N2[C@H]1C(=O)O` has an infection rate of 100%.

Block 2
SMILES: CC1=C(C#N)[C@@H](c2ccc3[nH]nc(C)c3c2)C(C#N)=C(c2ccc(Cl)cc2)N1
Observed: cell-free assay
Method: competition with immobilised ligand
Tested at: 1 µM
SNRK (Homo sapiens, UniProt Q9NRH2) — remaining binding: 100%.
The remaining binding was 64.7% (CSNK1A1 (Homo sapiens, UniProt P48729)).
It gave 65% for remaining binding (TNK1 (Homo sapiens, UniProt Q13470)).
FGFR4 (Homo sapiens, UniProt P22455) — remaining binding: 100%.
The remaining binding was 79.9% (Tyrosine-protein kinase ABL1, non-phosphorylated (ABL1, Homo sapiens, UniProt P00519, H396P)).
STK4 (Homo sapiens, UniProt Q13043) — remaining binding: 100%.
For BRSK1 (Homo sapiens, UniProt Q8TDC3): remaining binding read 100%.
It gave 100% for remaining binding (EGFR (Homo sapiens, UniProt P00533, del752-759)).
PLK2 (Homo sapiens, UniProt Q9NYY3) — remaining binding: 100%.
The remaining binding was 100% (EPHB1 (Homo sapiens, UniProt P54762)).
For KIT (Homo sapiens, UniProt P10721, L576P): remaining binding read 100%.
It gave 92.7% for remaining binding (SRMS (Homo sapiens, UniProt Q9H3Y6)).
It gave 100% for remaining binding (EGFR (Homo sapiens, UniProt P00533, L861Q)).
It gave 84.5% for remaining binding (DDR1 (Homo sapiens, UniProt Q08345)).
For SRPK2 (Homo sapiens, UniProt P78362): remaining binding read 100%.
For KIT (Homo sapiens, UniProt P10721, D816V): remaining binding read 100%.
It gave 35.8% for remaining binding (PIK3CA (Homo sapiens, UniProt P42336, H1047Y)).
It gave 84.5% for remaining binding (SGK3 (Homo sapiens, UniProt Q96BR1)).
The remaining binding was 100% (KIT (Homo sapiens, UniProt P10721, V559D/V654A)).
The remaining binding was 74.3% (FGFR2 (Homo sapiens, UniProt P21802)).
It gave 100% for remaining binding (Ribosomal protein S6 kinase alpha-4, C-terminal kinase domain (RPS6KA4, Homo sapiens, UniProt O75676)).
It gave 100% for remaining binding (YES1 (Homo sapiens, UniProt P07947)).
The remaining binding was 52.6% (Tyrosine-protein kinase ABL1, non-phosphorylated (ABL1, Homo sapiens, UniProt P00519)).
For Tyrosine-protein kinase ABL1, phosphorylated (ABL1, Homo sapiens, UniProt P00519, M351T): remaining binding read 94.6%.
PAK2 (Homo sapiens, UniProt Q13177) — remaining binding: 100%.

Block 3
Cell line: mouse MPNST tumor cells
Method: high-content immunofluorescence imaging
Measured: nuclear SOX9
Tested at: 10 µM
Time: 12 h
Notes: mean of 2 replicates
Relative to: DMSO control
Reading: higher = more nuclear SOX9
For `CCN(CC)S(=O)(=O)Nc1cccc(-c2ccc3c(NC(=O)C4CC4)n[nH]c3c2)c1`, “nuclear SOX9 intensity” read 182 % of DMSO.
Under “nuclear SOX9 intensity”, `O=C(NCc1ccccn1)Nc1nnc(-c2ccco2)o1` is recorded as 92.1 % of DMSO.
`COc1ccc(Br)cc1S(=O)(=O)NC(=O)/C=C/c1ccccc1Cc1ccc2ccccc2c1`: “nuclear SOX9 intensity” 99.2 % of DMSO.
Under “nuclear SOX9 intensity”, `Cc1cnc(-c2ccccc2C(C)C)nc1NCc1ccc(-n2ccnn2)cc1` is recorded as 94.7 % of DMSO.
Under “nuclear SOX9 intensity”, `CCN1CCc2nc(N)oc2CC1` is recorded as 95.2 % of DMSO.
Under “nuclear SOX9 intensity”, `COc1ccccc1C(=O)Nc1cc2c(cc1N1CCCC1)n(C)c(=O)n2C` is recorded as 128 % of DMSO and 134 % of DMSO.
`O=C1Nc2ccccc2C12OCC1(CO2)COC2(OC1)C(=O)Nc1ccccc12` (stereo not shown): “nuclear SOX9 intensity” 114 % of DMSO.
`CC(C)c1ccccc1S(=O)(=O)c1cc(N)c2ncccc2c1[N+](=O)[O-]`: “nuclear SOX9 intensity” 65.8 % of DMSO.
For `COc1cc2c(cc1NS(=O)(=O)c1ccc(Br)cc1C)n(C)c(=O)n2C`, “nuclear SOX9 intensity” read 95.3 % of DMSO and 101 % of DMSO.
`CC(C)[C@H](CO)Nc1nc(Nc2cccc(Cl)c2)c2ncn(C(C)C)c2n1`: “nuclear SOX9 intensity” 100 % of DMSO.
`CCc1ccc(NC(=O)Nc2c[nH]c3ccccc23)cc1` — result for “nuclear SOX9 intensity”: 146 % of DMSO.
Under “nuclear SOX9 intensity”, `Cc1cc(-c2nc(-c3ccc(OC(F)(F)F)cc3)no2)nn1Cc1ccnc(N2CCN(C3CC3)CC2)c1` is recorded as 180 % of DMSO.
Under “nuclear SOX9 intensity”, `C=CCN1CCc2nc(N)sc2CC1` is recorded as 107 % of DMSO.
For `CCc1cc(-c2n[nH]c(C)c2-c2ccc3c(c2)OCCO3)c(O)cc1O`, “nuclear SOX9 intensity” read 49.1 % of DMSO.
For `Cc1cn2c(N)c(Cl)cc(C(=O)NCC3CCN(CC(C)C)CC3)c2n1`, “nuclear SOX9 intensity” read 105 % of DMSO.
For `Cc1c(O)cccc1C(=O)N[C@@H](CSc1ccccc1)[C@H](O)CN1C[C@H]2CCCC[C@H]2C[C@H]1C(=O)NC(C)(C)C`, “nuclear SOX9 intensity” read 128 % of DMSO.
`O=C(Nc1cccnn1)N1CCC(=Cc2cccc(Oc3ccc(C(F)(F)F)cn3)c2)CC1`: “nuclear SOX9 intensity” 142 % of DMSO.
Under “nuclear SOX9 intensity”, `Cc1ccc2cc(-c3c(C)ccc(C(=O)c4c(-c5ccccc5)n(C)n(-c5ccccc5)c4=O)c3N)ccc2n1` is recorded as 125 % of DMSO.
For `COc1c(N2CCNC(C)C2)c(F)cc2c(=O)c(C(=O)O)cn(C3CC3)c12` (stereo not shown), “nuclear SOX9 intensity” read 96 % of DMSO.
`CN[C@@H]1[C@H](O)[C@H](NC)[C@H]2O[C@@]3(O)C(=O)C[C@@H](C)O[C@H]3O[C@@H]2[C@H]1O`: “nuclear SOX9 intensity” 95.5 % of DMSO.
For `CC(C)C(=O)Nc1ccc([N+](=O)[O-])c(C(F)(F)F)c1`, “nuclear SOX9 intensity” read 106 % of DMSO and 98.4 % of DMSO and 99.8 % of DMSO.

Block 4
Target: Dual specificity tyrosine-phosphorylation-regulated kinase 2 (DYRK2, Homo sapiens, UniProt Q92630)
Chain of UniProt Q92630 (whole entry, looked up): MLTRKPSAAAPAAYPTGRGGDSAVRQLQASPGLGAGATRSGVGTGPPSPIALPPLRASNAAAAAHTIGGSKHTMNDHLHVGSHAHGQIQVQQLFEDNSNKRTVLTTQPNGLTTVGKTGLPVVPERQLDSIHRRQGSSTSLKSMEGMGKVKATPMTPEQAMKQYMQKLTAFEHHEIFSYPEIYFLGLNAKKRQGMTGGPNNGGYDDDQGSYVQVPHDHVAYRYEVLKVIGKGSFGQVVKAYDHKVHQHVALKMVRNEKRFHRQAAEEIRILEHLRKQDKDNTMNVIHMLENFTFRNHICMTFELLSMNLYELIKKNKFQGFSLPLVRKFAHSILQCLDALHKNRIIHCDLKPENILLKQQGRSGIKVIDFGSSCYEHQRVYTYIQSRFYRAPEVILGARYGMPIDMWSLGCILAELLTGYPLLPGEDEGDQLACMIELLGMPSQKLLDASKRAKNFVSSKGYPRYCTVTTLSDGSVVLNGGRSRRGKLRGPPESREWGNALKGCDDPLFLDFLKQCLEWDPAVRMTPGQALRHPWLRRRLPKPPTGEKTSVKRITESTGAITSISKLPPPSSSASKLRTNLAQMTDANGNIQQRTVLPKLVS
Observed: enzyme activity
Mode: inhibitor
Tested at: 0.5 µM
Relative to: control
`CC(C)(C)c1nc2c3cc[nH]c(=O)c3c3cc(F)ccc3c2[nH]1` gave a remaining activity of 62.5%.
For `Nc1nc(Nc2ccc(S(N)(=O)=O)cc2)nn1C(=S)Nc1c(F)cccc1F`, the remaining activity was 60.4%.
For `COc1cc2c(N3CCN(C(=O)Nc4ccc(OC(C)C)cc4)CC3)ncnc2cc1OCCCN1CCCCC1`, the remaining activity was 107%.
With `O=C(c1ccccc1)c1ccc(N2CCOCC2)cc1O` the remaining activity was 96.8%.
With `COc1cc2c(Nc3ccc(Br)cc3F)ncnc2cc1OCC1CCN(C)CC1` the remaining activity was 97.2%.
For `O=C1c2ccccc2-c2nc3nnnn3nc21`, the remaining activity was 113%.
The remaining activity of `CC(C)N(CCC(=O)c1ccc2ccccc2c1)Cc1ccccc1` is reported as 118%.
`CCCCc1c(-c2ccc(O)cc2)[nH]c2nccnc12` gave a remaining activity of 93.1%.
`FC(F)(F)c1ccc(/C=C/c2nc(COc3ccc(CCCCn4ccnn4)cc3)co2)cc1` has a remaining activity of 110%.
With `N#C/C(=C(/N)SC1C=CC=CC1)c1cccc(C(O)c2ccncc2)c1` (stereo not shown) the remaining activity was 96.7%.
`O=c1c(-c2ccc(F)cc2)c(-c2ccncc2)[nH]n1-c1ccc(Cl)cc1` gave a remaining activity of 86.9%.
For `NC(=O)c1ccc(-c2nc(-c3ccc4c(c3)OCCO4)c(-c3ccccn3)[nH]2)cc1`, the remaining activity was 103%.
The remaining activity of `CC(C)n1cnc2c(Nc3cccc(Cl)c3)nc(NCCO)nc21` is reported as 93.9%.
For `Clc1ccc(Nc2nnc(Cc3ccncc3)c3ccccc23)cc1`, the remaining activity was 103%.
The remaining activity of `O=Nc1c(-c2c(O)[nH]c3ccccc23)[nH]c2ccccc12` is reported as 79.1%.
The remaining activity of `CCN(CC)CCCCN1c2ccccc2Oc2ccc(Cl)cc21` is reported as 101%.
`O=C(O)/C=C/c1cc(Br)c(Br)c(Br)c1Br` gave a remaining activity of 79.4%.
For `c1cc(-c2cnn3cc(-c4ccc(OCCN5CCCCC5)cc4)cnc23)ccn1`, the remaining activity was 47%.
`NC(=O)c1cccc(-c2cc(Nc3ccc(OC(F)(F)F)cc3)ncn2)c1` has a remaining activity of 78.7%.
With `CNc1cc2c(Nc3cccc(Br)c3)ncnc2cn1` the remaining activity was 89.9%.
For `C[C@@H](N)[C@H]1CC[C@H](C(=O)Nc2ccncc2)CC1`, the remaining activity was 95.2%.
For `N#CC(c1ccnc(NCCc2cccnc2)n1)c1nc2ccccc2s1` (stereo not shown), the remaining activity was 22.2%.
For `O=C1NC(=O)/C(=C/c2ccc3c(c2)OC(F)(F)O3)S1`, the remaining activity was 98.6%.

Some of these lines once more (block 2):
For SRPK2 (Homo sapiens, UniProt P78362): remaining binding read 100%.
For KIT (Homo sapiens, UniProt P10721, D816V): remaining binding read 100%.
It gave 35.8% for remaining binding (PIK3CA (Homo sapiens, UniProt P42336, H1047Y)).
It gave 84.5% for remaining binding (SGK3 (Homo sapiens, UniProt Q96BR1)).
The remaining binding was 100% (KIT (Homo sapiens, UniProt P10721, V559D/V654A)).
The remaining binding was 74.3% (FGFR2 (Homo sapiens, UniProt P21802)).
